Experimental data pooled from the literature.
A part holds a random share of what one study measured. Substitutions count along the parent as printed.

Block 1 — target: NFE2L3, bZIP domain (human); technique: DHFR protein complementation; medium: yeast; baseline: wild-type JUN-FOS pair; reading: higher = stronger binding; measurement: binding fitness
Notes: single substitutions, most at no-binding floor
Starting sequence: JUN, bZIP domain (human); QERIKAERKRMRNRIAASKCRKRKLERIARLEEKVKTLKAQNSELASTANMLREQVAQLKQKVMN; partner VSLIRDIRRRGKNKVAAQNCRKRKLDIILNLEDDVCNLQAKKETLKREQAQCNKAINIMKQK
M51N: -1.47 natural log
A40Q: -1.52 natural log
K34E: -1.46 natural log
R30E: -1.46 natural log
K36W: -1.39 natural log
M51Q: -1.35 natural log
M51P: -1.56 natural log
E44L: -1.48 natural log
L31S: -1.51 natural log
N42M: -1.47 natural log
T37I: -1.46 natural log
A49C: -1.51 natural log
R53T: -1.35 natural log
A46T: -1.57 natural log
Q41V: -1.42 natural log
E32C: -1.4 natural log
A49W: -1.49 natural log
K39Y: -1.61 natural log
K34A: -1.58 natural log
K34R: -1.28 natural log
S43K: -1.55 natural log
A57T: -1.37 natural log
Q58P: -1.5 natural log
A49G: -1.54 natural log
R53S: -1.51 natural log

Block 2 — technique: RNA Bind-n-Seq; molecule type: RNA; medium: in vitro; concentration: 365 nM; baseline: no-protein control; reading: higher = stronger binding; measurement: RBNS enrichment (R)
Target: RNA binding protein fox-1 homolog 2, RRM domain, GST-SBP tag (RBFOX2, Homo sapiens, UniProt O43251-10, residues 100-194)
Notes: natural RNA segment, single round, ends assumed
All sequences stand within: GGGAGUUCUACAGUCCGACGAUC … UGGAAUUCUCGGGUGCCAA
Construct (chain): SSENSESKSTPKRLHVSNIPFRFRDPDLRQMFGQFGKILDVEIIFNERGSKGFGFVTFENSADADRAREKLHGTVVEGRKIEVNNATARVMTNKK
GAUCUCAUUAGUUUAUAGGCGUUGAUAAUAUCCCUAUGCAUAGAUUCUUUGUGUAUUGAUUACUAUAUAUAGACAUCUAAGAGGUUAAUUAUUGAUCAAGAAGACAGGUU: 0.339
CUGAGUGCCAGUUGUAAAUGUUUUUCAACCAGCACCUAAAAAGACUCUUUUCAAAAAAUCACAGAAACAACCUAGGACAAUUAUUUGUUACAUAAUCCGACCUCAUAGCA: 3.82
CUGCUGUGAACAGUUAUGAACCAGGGGAGGCUGCUGCAUGUGCCUAUUAUGUUGGCAGUGGGUGGCAGGCAGAGGCAGGCACGCGAUUAGUAGAGCCCUGCUUGGGCCUC: 3.07
CAACUCAUAGCCAAGGUGGUCUGAUCGUAGACAUUCCUUCCCUGCCCCAUGCGCUUGCCUCUCUCUCUCUCUCUCUCUCUCUUUCUCUCUCUCUCUCUCUCUCUCUCUCU: 1.49
AAAAACUAUUAUUGAUGUAUUAAAAGAAAUUACGGUACCACGUUGAUUAGUCUGAAUGUUUGCAGGCAUUGGAAUAAAAUUUGACUUAUUUUUUCCCUCUUCCCCUGUCA: 0.413
CUCCAGAAGCACCUCAACAAUGUCAGUGGCUGAGGCUGCACUCAGAGGGAUGACUGCUGGGGGUAGACUGGGUGCCAGGGGCCAUGGGCCCAGGACCCAGUCUUGGCCAU: 0.602
AGACUUGGCUGCCCUCUGAUGUGGGUGCUUCUGCCCCUUCCCUGUUCUAACUGUCCGACAGGCUCCCAGUCUCUGUGUGUCCAGGCCAGAGGACCAGCACUCAGGAGAGU: 0.56
AAAGCCCUUAAUAAAUAUUUUACAUCCUUUCUAAUGACAAUGAAUGGAAUUAAUCACUCAACAGGUAUAGUAUUACGACUCAUGUUUACUUUUUAAAAUGAUUUAGACCG: 0.509
CAUCCUAAUGGAGACACACAAAACUGUUGGUAAGAAGAUGCAACAGAUCCAAAGGGAAAUUCUAGAGAUCUCUUAGUAAUGUAGUAAGGCAGGCCUUCUUCUUCCGGAGU: 0.504
AGCCCAGCCCACCCUGCGACUGGUUCUUGGUUUAAUAAACACAUGUAAGAGUUCUUUCCACCACUGACUAGCAUUUGCUGACAAAUCACUGGACUGGGGUUGGGACCACA: 0.324
CUAAGUUGUCAGCCCAACAGAGUUUGGUAGACCUUGGGGGUCCCUGGCUUAUCUCUCCACCCCAAACCUCCUUCCUGUCUGGUCCCCAGCCUGGGGGGGUUCUGAGCAGU: 0.87
UUGACACACUCCAGUCCUGAGCUGCUCUGCUGCCGCUUCCCUCAGUUAACCUUCUCACCGAAACCUUAGUUCAGGAUGGAUCAAGUGCUGUGACAGUGACAGCUCAUUUC: 0.53

Block 3 — target: CCND1, cyclin fold, Cln2 fusion (human); technique: yeast growth competition, sequencing; medium: yeast; notes: weak parent motif; baseline: not given; reading: higher = stronger binding; measurement: normalised enrichment score
Starting sequence: AKAP12 docking peptide (human); GSPLKKLFTSTGL; partner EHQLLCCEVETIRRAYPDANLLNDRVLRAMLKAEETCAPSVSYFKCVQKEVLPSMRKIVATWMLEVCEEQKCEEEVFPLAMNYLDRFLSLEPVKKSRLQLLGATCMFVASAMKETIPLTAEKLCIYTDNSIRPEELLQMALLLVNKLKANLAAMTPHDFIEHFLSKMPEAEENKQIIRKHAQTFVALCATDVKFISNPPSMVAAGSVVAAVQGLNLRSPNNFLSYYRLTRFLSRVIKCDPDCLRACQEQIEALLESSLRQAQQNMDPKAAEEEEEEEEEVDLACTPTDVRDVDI
GSPLKKLLTSTGL [F8L]: 0.483
GSALKKLFTSTGL [P3A]: 0.687
ASPLKKLFTSTGL [G1A]: 0.206
GSPLAKLFTSTGL [K5A]: -0.436
GSPLRKLFTSTGL [K5R]: 0.307
GSPLKKLFTSAGL [T11A]: -0.374
GSPLAKAFTSTGL [K5A L7A]: 0.133
GSPLKKAFTSTGL [L7A]: 0.315
GSPAKKLFTSTGL [L4A]: 0.865
GSPLKKLATSTGL [F8A]: -0.0671

Block 4 — technique: RNA Bind-n-Seq; molecule type: RNA; medium: in vitro; concentration: not given; baseline: input RNA pool; reading: higher = stronger binding; measurement: bound/input enrichment
Target: RING finger protein unkempt homolog, zinc fingers 1-6, GST-SBP tag (UNK, Homo sapiens, UniProt Q9C0B0, residues 30-357)
Notes: RNA with constant flanks, human and mouse sites, ends assumed
All sequences stand within: GGGAGUUCUACAGUCCGACGAUC … CAACAGAGGAUUGAGCAUCA
Construct (chain): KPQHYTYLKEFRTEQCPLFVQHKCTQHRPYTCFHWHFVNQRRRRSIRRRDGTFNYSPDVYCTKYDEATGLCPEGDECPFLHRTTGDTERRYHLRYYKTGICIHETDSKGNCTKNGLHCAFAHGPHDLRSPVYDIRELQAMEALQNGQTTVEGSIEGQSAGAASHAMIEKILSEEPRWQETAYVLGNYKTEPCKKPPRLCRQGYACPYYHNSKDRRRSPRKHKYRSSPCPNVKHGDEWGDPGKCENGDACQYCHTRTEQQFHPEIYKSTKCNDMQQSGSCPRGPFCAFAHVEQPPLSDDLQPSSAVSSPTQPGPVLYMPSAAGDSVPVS
GCAGAAGAGUGCCCUGGUCAAGCGGCUCAAAGGGGCUCUAAUGCUAGAAAAUUUACAAAAACACUCAACACCCCAUGCUGCAUUCCAGCCAAAUUCACAGAUCGGGGAGGAAAUGAGCCA: 5.72 ratio
GCACAGAUUCAUCAAUUCAGAGAGGAUUCAUUGGAUAGCGUUCUUUUUUUAAAGAAGAUUGAUAGAUGCUGGCAAAACCAUUGCAGACAAAUGAUCAUGAUCAGGAGCAUUUUUUUGUUU: 0.402 ratio
CUUGAAUGGCUUAGGGCUCAACCAGACUGUUGAUCUCCUCAUGCAAGAGUCAGGAUGUCGUUUAGAACAUCCUUCUGCUACCAAAUUCCGAAAUCAUGUCAUGGAAGGAGACUGGGAUAA: 0.0971 ratio
GAACCCACAGAAGAUUCUGGCAUUUCUCUGGAAAUGGCCGCUGUGACAGUGAAGGAGGAGUCAGAAGACCCUGAUUACUAUCAGUAUAACAUUCAAGGAAGCCAUCACUCCUCAGAAGGC: 0.2 ratio
CGGAGGUAAACCCUGCACGCACAUCGUGCUUCGGCGUGUCAGGUAUUUGAAUUUAGAGUUUAGUUUCCCAUAACAUUUUCUACAAGAAGAAUCUUGGUAGUGUCUCAAAGACAUCACUGA: 0.921 ratio
AUCAGAGAGUCUGGCAAAGCAGACAGGGAUGGUGAUAAGAUGGCUCCUUCAGUUGAAAAAAAGAUUGCAGAGCUUGAAAUGGGACUCCUCCACCUGCAGCAGAACAUUGAGAUCCCAGAG: 0.145 ratio
UCUGCCUGUAAGCAAGUCGUAAGUGUGGAAACUACAAGAGACAUUGAAUGGGCUACCUAUACCUGCACUUUGGGAUUCCAUGUUUUUGGAGUGUGGCCAGAAGGCUCGGACGGAACCGAC: 0.229 ratio
CCGCGCGGCCGGCCGGCCGACUAGGGUUUGAAGACUGCUUCAUUCUGCCUCUAGUACCAGCGGUUUCUCUGUUCUGUGAUCAAUGUGAUUCACAGGAACUCCUUAAGUAACAAACGAAAU: 0.457 ratio
GGGAGAACUGCGCUGCAGGUUAUGAAACUUGGAAAUCCGGAGAUUGCCAGGAGGCUUCUCCUCAGAGGUGCUAAUCCCAAUUUGAAAGAUGGAACUGGUUUUGCUGUCAUUCAUGAUGCU: 0.919 ratio
GCAUAAAUCCACCCCUGUUUGAAAUCUAUCAAGUCUUGUUAAGCCCAACACAACAUCAUGUAGCACUUAUAGGAAUAAAAGGACUUAUGGUAUUAGAAUUACCUAAAAGAUGGGGGAAGA: 0.859 ratio
AUCCCUGAGAAUGCUAUAUUUGGUCCCUGUGUCCUGAGCCAUACUUCCCUAUAUGACAGCAUAGCUUUCAUAGCUCUCAAGUCUACUGACAAGAGAACAGUACCGUAUAUCUUUCGGGUA: 0.0973 ratio

Block 5 — technique: universal PBM; molecule type: double-stranded DNA, one strand shown; medium: in vitro; concentration: not given; reading: higher = stronger binding; measurement: E-score
Target: Sal-like protein 4, full length isoform B (SALL4, Homo sapiens, UniProt Q9UJQ4-2, residues 1-616)
Notes: 8-mer, flanks averaged, mean of replicates
AGTTAGGC: -0.0507
CAGGGTAG: -0.253
TCACTGAA: -0.0559
CTCGTATC: 0.0391
CTTTATAC: 0.24
AATAGTAC: 0.141
GCGTGCGA: -0.279
CCGGTGAA: -0.116
AAAATTAA: 0.373
CACCGCTC: -0.318
AAGGATTA: 0.222
GCGCATCC: -0.201
CCGGGGCG: -0.397
TCGCTAGA: -0.0851
ATCTTTCA: 0.137
AGGTCTAG: 0.0361
GGGCGCGA: -0.306
GTAGAGAC: -0.0591
AGGGGTTG: 0.0156
AAGAGAGG: 0.0226
TCGGTACA: 0.0533
GGGCATAA: 0.0751
ACCTTGTC: -0.103
CGTGTGAA: -0.053
ATGTCCAA: 0.111

Block 6 — technique: protein-binding microarray; molecule type: double-stranded DNA, one strand shown; medium: in vitro; concentration: not given; reading: higher = stronger binding; measurement: E-score
Target: Hepatocyte nuclear factor 3-beta, forkhead domain (FOXA2, Homo sapiens, UniProt Q9Y261, residues 142-269)
Notes: k-mer, scored over probes, only values ≥0.25
Construct (chain): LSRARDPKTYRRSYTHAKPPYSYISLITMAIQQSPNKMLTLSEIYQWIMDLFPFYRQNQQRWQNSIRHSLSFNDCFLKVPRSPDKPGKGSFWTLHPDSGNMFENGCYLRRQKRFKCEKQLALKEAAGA
TAAATCAA: 0.321
AAATATCG: 0.251
CAGTATAC: 0.257
TATCACAA: 0.279
ACATTTCA: 0.257
ATATTCAT: 0.328
CACATACC: 0.26
CTATTCTA: 0.289
ATTGACGA: 0.259
AATCGATA: 0.253
AAATATAT: 0.377
ATTATTTA: 0.336
AATGACAA: 0.3
TCAATACA: 0.341
ATACAGTA: 0.347
ATCTAATA: 0.336
TCTGTACA: 0.256
ACCTGATA: 0.255
ATTTATCC: 0.285
ATATGATC: 0.277

A few entries again (block 1):
M51P: -1.56 natural log
E44L: -1.48 natural log
L31S: -1.51 natural log
N42M: -1.47 natural log
T37I: -1.46 natural log
A49C: -1.51 natural log
